Measured values gathered from unrelated publications.
Compare with care: the assays were run in different laboratories. Numbers after ± are the reported error. ≈ marks a conversion by molar mass, not a printed value.

| SMILES | tested on | test | test system | conditions | scale | endpoint | result |
| --- | --- | --- | --- | --- | --- | --- | --- |
| Oc1ccc(/C=C/c2cc(O)cc(O)c2)cc1 | Nedd8-cullin1 interaction | neddylation, AlphaScreen |  | 100 µM |  | inhibition | 16.4% |
| C[C@@H]1COCCN1c1cc(C2([S@](C)(=N)=O)CC2)nc(-c2cc[nH]c3nccc2-3)n1 |  |  | Japanese advanced solid tumour patients | oral, 160 mg twice daily, any grade |  | Fatigue incidence | 0% |
| CCN(CC)Cc1ccc2cc(COC(=O)Nc3ccc(C(=O)NO)cc3)ccc2c1 |  |  | rat plasma | 3200 ng/mL, three freeze-thaw cycles | reference: nominal concentration | stability relative error | 109% |
| CCn1cc(C(=O)N2CCOCC2)c(=O)c2cc(NC3Cc4ccccc4C3)cnc21 |  |  | human, fed | oral suspension, 600 mg single dose, arithmetic mean |  | half-life | 6.13 h |
| CC(=O)O[C@H]1C(=O)[C@@]2(C)[C@H]([C@H](OC(=O)c3ccccc3)[C@]3(O)C[C@H](OC(=O)[C@H](O)[C@@H](NC(=O)c4ccccc4)c4ccccc4)C(C)=C1C3(C)C)[C@]1(OC(C)=O)CO[C@@H]1C[C@@H]2O |  |  | human patients | intravenous, dose not given, cycle 2 day 1, range | reference: cycle 1 day 8 | clearance change | -69 to 39% |
| Cc1nc2cccc(OCC(C)(C)C(=O)NC(C)C)c2c(N)c1C(=O)O |  |  | Swiss albino CD-1 mouse | oral, 2000 mg/kg, 24 h |  | mean body weight change | -0.2 ± 0.7 g |
| Cc1cc(-c2nccc3c2ccn3CC(=O)Nc2ccc(-c3cnccn3)cn2)ccn1 |  |  | human | 5 mg once daily, multiple ascending dose |  | subjects with contact dermatitis | 0% |
| COc1cccc(OC)c1-c1cc(C(=O)NC2(C(=O)O)C3CC4CC(C3)CC2C4)nn1-c1ccc(C(=O)N(C)CCCN(C)CCCN(C)C(=O)CN2CCN(CC(=O)[O-])CCN(CC(=O)[O-])CCN(CC(=O)[O-])CC2)cc1C(C)C.[177Lu+3] (centres unmarked) |  |  | mouse, HT-29 xenograft | 24 h post injection, biodistribution | reference: tumour over lung uptake | tumour-to-lung ratio | 59.5 |
| FC(F)(F)c1ccc(CNc2ccc(Cc3c[nH]c4ncc(Cl)cc34)cn2)cn1 |  |  | patients with advanced solid tumours | oral, dose not given, phase Ib, possibly related to compound |  | adverse events, any | 31% |
| CCN1CCN(Cc2ccc(NC(=O)c3ccc(C)c(NC(=O)c4cncc(-c5cccs5)c4)c3)cc2C(F)(F)F)CC1 |  |  | C57BL/6 mice, plasma | intraperitoneal, 15 mg/kg |  | extrapolated AUC share | 8.93% |
| COc1cc2[nH]c(C)c(-c3ccc(F)cc3)c(=O)c2cc1Cl |  |  |  | pH 7.4 |  | kinetic solubility | 2 to 6 µM (≈ 0.635 to 1.91 µg/mL) |
| FC(F)(F)c1ccc(CNc2ccc(Cc3c[nH]c4ncc(Cl)cc34)cn2)cn1 |  | refers to: mucosal inflammation | human, advanced solid tumours, non-TGCT cohort | oral, 1000 mg/day, any grade |  | treatment-related adverse events | 4% |
| N#Cc1ccc2c(c1)[C@H]1CCCN(C(=O)c3ccc4[nH]cnc4c3)[C@H]1C2 |  |  | human males | 360 mg, end of trial |  | DHEA-S level | 4.1 µmol/L |
| C=CCN1CC(=O)N2[C@@H](Cc3ccc(O)cc3F)C(=O)N(Cc3cccc(N4CC(N5CCN(CC)CC5)C4)n3)C[C@@H]2N1C(=O)NCc1ccccc1 |  |  | advanced solid tumour patients | oral, 100 mg twice daily, grade ≥3, dose-escalation |  | treatment-related vomiting | 0% |
| COc1ncc(-c2nc3c(n2C(C)C)[C@H](c2ccc(Cl)cc2)N(c2cc(Cl)cn(C)c2=O)C3=O)c(OC)n1 |  | LC-MS/MS, noncompartmental | human, plasma | oral, 2 mg, C1D1, low-dose, geometric mean |  | Cmax | 12 ng/mL |
| COc1cccc(-c2n[nH]c(SCc3ccccn3)n2)c1OC |  |  | Sprague-Dawley rats, female | diet, 10 mg/kg/day, day 45, 90-day subchronic study |  | serum albumin | 3.66 g/dL |
| CNC(=O)c1ccc(-c2cnc3ncc(Cc4ccc5ncccc5c4)n3n2)cc1F |  | phase 1 clinical trial, refers to: non-cardiac chest pain | gastric cancer expansion cohort | oral, 600 mg twice daily, grade 3 or 4 |  | adverse event incidence | 0% |
| C[C@H]1C[C@@H](N2C(=N)N[C@](C)(c3cccc(NC(=O)c4cccc(C#N)c4)c3Cl)CC2=O)CCO1 |  |  |  | absorbance maximum 289 nm |  | molar extinction coefficient | 3275 ± 24.6 L/mol/cm |
| CC=CC1CCC(C2CCC(CCC)CC2)CC1 (centres unmarked) |  |  | rat, placenta | 5000 ng/mL in perfusate, high dose, mixture of 21 LCMs |  | median placental accumulation | 184 ng/g |
| Cc1ccc(Sc2ccccc2N2CCNCC2)c(C)c1 |  | refers to: Somnolence | healthy adult men | oral, 40 mg single dose, 10 day |  | participants with TEAE | 0% |
| CC(F)(F)c1nc2nc(CO)cc(Nc3ccc(S(F)(F)(F)(F)F)cc3)n2n1 |  | LC-MS/MS | malaria patients, plasma | oral, 400 mg of parent drug |  | half-life, metabolite | 126 h |
| CC(C)(C)NC[C@H](O)COc1nsnc1N1CCOCC1 | Nedd8-cullin1 interaction | neddylation, AlphaScreen |  | 100 µM |  | inhibition | 35.2% |
| C[C@H]1CN(C(=O)CC#N)[C@]12CCN(c1ncnc3[nH]ccc13)C2 |  |  | healthy adults, plasma | oral, 3 mg single dose |  | half-life, mean | 2.3 h |
